Published values from different studies.
Compare with care: the assays were run in different laboratories. “And” joins repeats or separate records; there may be more than shown. Numbers after ± are the reported error.
HDAC6 ZnF-UBD domain: Protein deacetylase HDAC6, ZnF-UBD domain (HDAC6, Homo sapiens, UniProt Q9UBN7)
Sequence of UniProt Q9UBN7 (whole entry, looked up): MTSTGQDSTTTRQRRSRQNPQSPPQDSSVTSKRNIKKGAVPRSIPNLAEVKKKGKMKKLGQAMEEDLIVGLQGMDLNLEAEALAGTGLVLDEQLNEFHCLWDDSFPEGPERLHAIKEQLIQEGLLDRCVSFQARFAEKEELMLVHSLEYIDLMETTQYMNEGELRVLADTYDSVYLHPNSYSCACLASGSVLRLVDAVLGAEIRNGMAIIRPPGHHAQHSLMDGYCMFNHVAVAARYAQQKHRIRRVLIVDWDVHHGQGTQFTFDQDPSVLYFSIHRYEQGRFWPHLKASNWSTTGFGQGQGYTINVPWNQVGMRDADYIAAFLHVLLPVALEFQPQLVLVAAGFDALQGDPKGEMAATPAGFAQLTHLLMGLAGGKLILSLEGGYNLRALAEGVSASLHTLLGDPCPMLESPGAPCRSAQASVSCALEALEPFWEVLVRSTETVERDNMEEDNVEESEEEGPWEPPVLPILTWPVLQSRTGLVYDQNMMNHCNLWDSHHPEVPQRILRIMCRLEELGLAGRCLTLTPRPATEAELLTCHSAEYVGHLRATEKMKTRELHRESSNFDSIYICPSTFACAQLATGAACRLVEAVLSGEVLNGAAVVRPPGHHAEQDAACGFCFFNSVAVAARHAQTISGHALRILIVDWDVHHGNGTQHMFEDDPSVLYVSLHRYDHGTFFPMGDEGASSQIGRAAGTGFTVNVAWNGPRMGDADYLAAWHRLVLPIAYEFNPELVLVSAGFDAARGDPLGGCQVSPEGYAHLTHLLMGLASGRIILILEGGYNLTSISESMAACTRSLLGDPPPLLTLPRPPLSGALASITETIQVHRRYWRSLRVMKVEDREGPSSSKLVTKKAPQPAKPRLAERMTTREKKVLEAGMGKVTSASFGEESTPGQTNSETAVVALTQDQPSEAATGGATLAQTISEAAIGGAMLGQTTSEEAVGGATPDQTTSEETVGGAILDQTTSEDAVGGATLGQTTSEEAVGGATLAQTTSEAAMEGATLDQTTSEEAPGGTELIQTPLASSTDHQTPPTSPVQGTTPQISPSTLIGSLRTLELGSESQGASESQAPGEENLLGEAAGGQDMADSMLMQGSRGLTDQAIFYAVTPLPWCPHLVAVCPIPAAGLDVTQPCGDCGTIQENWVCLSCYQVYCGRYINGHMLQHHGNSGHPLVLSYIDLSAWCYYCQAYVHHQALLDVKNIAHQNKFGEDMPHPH
SMARCA2: SWI/SNF-related matrix-associated actin-dependent regulator of chromatin subfamily A member 2 (SMARCA2, Homo sapiens, UniProt P51531)
SCRIB PDZ3 domain: Protein scribble homolog, PDZ3 domain (SCRIB, Homo sapiens, UniProt Q14160)
Sequence of UniProt Q14160 (whole entry, looked up): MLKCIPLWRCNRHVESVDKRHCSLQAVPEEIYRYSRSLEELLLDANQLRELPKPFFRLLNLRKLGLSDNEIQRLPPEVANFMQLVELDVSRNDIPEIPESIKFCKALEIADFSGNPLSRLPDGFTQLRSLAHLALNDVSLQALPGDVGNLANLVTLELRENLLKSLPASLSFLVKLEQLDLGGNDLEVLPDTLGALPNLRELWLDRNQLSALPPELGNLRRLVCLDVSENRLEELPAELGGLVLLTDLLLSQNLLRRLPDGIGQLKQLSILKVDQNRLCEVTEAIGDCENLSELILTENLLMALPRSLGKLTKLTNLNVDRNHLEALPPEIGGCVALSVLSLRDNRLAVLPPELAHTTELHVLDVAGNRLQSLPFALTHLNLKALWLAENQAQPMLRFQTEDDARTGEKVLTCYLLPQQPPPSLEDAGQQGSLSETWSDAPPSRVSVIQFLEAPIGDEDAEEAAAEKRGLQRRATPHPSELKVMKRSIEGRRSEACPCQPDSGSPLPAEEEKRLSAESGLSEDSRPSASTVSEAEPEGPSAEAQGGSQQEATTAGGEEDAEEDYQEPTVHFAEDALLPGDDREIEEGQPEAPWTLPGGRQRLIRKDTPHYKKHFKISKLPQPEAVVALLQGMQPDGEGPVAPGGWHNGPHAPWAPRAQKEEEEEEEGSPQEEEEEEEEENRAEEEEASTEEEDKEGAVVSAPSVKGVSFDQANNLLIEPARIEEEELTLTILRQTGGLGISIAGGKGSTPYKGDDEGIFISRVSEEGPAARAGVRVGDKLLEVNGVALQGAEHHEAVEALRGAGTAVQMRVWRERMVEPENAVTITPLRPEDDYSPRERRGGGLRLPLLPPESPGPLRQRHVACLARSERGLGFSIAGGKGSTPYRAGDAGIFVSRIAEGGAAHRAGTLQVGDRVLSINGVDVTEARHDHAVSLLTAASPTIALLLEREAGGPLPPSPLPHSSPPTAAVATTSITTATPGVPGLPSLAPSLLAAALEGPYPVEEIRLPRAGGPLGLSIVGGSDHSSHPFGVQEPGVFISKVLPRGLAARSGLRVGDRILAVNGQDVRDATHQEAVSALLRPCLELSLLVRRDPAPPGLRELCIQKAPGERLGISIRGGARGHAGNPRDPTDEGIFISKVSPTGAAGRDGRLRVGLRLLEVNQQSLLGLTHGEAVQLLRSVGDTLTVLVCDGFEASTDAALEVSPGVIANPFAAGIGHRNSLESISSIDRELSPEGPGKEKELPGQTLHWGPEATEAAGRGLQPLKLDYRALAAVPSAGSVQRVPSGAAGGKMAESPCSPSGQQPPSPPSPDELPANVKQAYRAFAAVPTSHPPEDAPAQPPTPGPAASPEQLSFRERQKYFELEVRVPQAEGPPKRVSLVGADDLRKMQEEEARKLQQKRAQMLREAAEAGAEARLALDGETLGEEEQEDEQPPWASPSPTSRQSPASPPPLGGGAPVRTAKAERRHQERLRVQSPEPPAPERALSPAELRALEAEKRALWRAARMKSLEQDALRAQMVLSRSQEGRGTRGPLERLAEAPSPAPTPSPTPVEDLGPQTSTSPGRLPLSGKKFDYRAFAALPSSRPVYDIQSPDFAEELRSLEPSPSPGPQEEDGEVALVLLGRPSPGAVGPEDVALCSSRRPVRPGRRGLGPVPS
Methyl-accepting chemotaxis protein McpA ligand-binding domain: Methyl-accepting chemotaxis protein McpA, ligand-binding domain (Bacillus velezensis, UniProt A7Z835)
gsk: Guanosine-inosine kinase (gsk, Escherichia coli, UniProt P0AEW6)
Sequence of UniProt P0AEW6 (whole entry, looked up): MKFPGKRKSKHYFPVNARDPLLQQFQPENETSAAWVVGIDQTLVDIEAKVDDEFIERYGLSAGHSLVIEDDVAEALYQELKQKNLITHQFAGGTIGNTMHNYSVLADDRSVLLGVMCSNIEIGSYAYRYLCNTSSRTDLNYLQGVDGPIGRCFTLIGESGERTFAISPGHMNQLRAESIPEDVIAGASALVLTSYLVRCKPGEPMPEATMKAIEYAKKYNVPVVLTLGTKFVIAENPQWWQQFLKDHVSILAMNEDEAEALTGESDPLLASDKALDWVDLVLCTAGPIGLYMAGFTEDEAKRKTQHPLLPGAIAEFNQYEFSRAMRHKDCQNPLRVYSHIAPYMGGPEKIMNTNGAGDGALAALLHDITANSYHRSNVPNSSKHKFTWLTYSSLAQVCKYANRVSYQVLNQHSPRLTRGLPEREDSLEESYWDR
USP13 ZnF-UBD domain: Ubiquitin carboxyl-terminal hydrolase 13, ZnF-UBD domain (USP13, Homo sapiens, UniProt Q92995)
Sequence of UniProt Q16774 (whole entry, unmodified, looked up): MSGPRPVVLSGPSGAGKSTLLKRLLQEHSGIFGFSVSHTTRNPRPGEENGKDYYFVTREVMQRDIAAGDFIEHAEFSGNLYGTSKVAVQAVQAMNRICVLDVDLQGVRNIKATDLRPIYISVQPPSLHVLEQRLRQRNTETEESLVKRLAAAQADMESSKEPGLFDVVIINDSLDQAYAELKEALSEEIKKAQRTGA
Sequence of UniProt Q92995 (whole entry, looked up): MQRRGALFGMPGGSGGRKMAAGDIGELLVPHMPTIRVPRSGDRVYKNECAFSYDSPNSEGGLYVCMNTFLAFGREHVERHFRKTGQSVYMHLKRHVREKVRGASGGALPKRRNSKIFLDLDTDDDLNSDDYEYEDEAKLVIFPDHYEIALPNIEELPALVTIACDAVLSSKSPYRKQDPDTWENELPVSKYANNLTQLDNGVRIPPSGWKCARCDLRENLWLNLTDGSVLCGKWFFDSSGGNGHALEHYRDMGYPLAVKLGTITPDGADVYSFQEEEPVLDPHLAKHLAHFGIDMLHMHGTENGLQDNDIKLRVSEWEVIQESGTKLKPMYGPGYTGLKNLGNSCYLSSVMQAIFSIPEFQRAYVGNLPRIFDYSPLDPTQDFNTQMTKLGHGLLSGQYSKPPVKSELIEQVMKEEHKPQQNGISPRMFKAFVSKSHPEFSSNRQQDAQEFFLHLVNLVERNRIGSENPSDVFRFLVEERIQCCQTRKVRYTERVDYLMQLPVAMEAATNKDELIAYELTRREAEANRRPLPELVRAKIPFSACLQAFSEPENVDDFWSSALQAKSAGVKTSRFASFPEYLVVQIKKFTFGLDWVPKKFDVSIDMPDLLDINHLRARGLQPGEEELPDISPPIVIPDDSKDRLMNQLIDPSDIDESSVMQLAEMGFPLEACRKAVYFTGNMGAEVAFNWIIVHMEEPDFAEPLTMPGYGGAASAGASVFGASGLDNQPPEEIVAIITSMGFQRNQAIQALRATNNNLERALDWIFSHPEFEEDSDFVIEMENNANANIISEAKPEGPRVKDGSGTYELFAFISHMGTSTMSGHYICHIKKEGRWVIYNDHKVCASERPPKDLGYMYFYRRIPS
Sequence of UniProt P00698 (whole entry, looked up): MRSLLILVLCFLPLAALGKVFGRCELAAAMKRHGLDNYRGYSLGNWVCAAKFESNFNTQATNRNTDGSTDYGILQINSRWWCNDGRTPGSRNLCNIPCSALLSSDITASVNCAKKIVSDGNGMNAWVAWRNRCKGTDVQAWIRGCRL
Sequence of UniProt O14965 (whole entry, looked up): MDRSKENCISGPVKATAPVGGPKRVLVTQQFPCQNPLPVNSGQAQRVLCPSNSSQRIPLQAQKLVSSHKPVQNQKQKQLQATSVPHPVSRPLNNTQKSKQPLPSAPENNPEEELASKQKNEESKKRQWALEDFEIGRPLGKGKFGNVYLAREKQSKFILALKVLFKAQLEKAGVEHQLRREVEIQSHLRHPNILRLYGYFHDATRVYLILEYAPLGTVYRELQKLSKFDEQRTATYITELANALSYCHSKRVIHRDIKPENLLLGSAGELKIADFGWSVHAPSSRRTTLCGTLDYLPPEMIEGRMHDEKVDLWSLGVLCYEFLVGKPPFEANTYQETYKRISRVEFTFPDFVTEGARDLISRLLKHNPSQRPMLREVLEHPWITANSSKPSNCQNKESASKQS
Sequence of UniProt Q9X6J6 (whole entry, looked up): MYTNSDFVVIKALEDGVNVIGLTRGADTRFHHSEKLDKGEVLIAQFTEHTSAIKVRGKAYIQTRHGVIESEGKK

| Compound | target or system | assay | system | setting | how to read | endpoint | result |
| --- | --- | --- | --- | --- | --- | --- | --- |
| CSc1nc(C)c(CCC(=O)O)c(=O)[nH]1 | HDAC6 ZnF-UBD domain |  |  |  |  | Kd | > 1000 µM |
| NCCCCCCC#Cc1cc(N2C3CCC2CN(c2cc(-c4ccccc4O)nnc2N)C3)ccn1 | SMARCA2 | binding, NanoBRET tracer displacement | permeabilized HEK293 |  |  | Kd | 0.017 ± 0.0021 µM |
| O=C(Nc1ccc(O)c(O)c1)c1cc2ccccc2oc1=O | Alpha-synuclein, monomer (SNCA, Homo sapiens, UniProt P37840) | isothermal titration calorimetry |  |  |  | Kd | 0.4 µM |
| N[C@@H](Cc1c[nH]c2ccccc12)C(=O)O | Transcription attenuation protein MtrB (mtrB, Geobacillus stearothermophilus, UniProt Q9X6J6) | isothermal titration calorimetry |  | 25 °C, one-site model |  | Kd | 0.19 ± 0.02 µM |
| CC(C)C[C@H](NC(=O)[C@H](CO)NC(=O)[C@@H](NC(=O)[C@H](CCC(=O)O)NC(=O)[C@H](CC(N)=O)NC(=O)[C@@H](NC(=O)[C@H](Cc1c[nH]cn1)NC(=O)[C@@H]1CCCN1C(=O)[C@H](CCCNC(=N)N)NC(=O)[C@@H](N)CO)[C@@H](C)O)[C@@H](C)O)C(=O)O | SCRIB PDZ3 domain | binding, fluorescence polarization | solution | Scribble PDZ3 domain |  | Kd | 2.4 µM |
| NC(=O)c1cc(-n2c(CCC(=O)O)nc3ccccc32)cs1 | HDAC6 ZnF-UBD domain |  |  |  |  | Kd | > 1000 µM |
| C[N+](C)(C)Cc1cccc(N=Nc2cccc(C[N+](C)(C)C)c2)c1 | muscarinic receptor, Rana temporaria | antagonist, radioligand displacement | ventricle homogenate | with: [3H]N-methylscopolamine |  | Kd | 4 to 5 µM |
| CC[C@@H]1[C@H](F)C(=O)N[C@@H]1COc1nccc2cc(C(N)=O)c(OC)cc12 | Aurora kinase A (AURKA, Homo sapiens, UniProt O14965) | ATP-site binding, ActivX KiNativ profiling | THP-1 cell lysate | Lys1 AurA probe site |  | IC50 | 3.4 µM |
| O=C1OC(C(O)CO)C(=O)C1=O (stereo not shown) | Methyl-accepting chemotaxis protein McpA ligand-binding domain | binding, biolayer interferometry |  | 25 °C, 1:1 binding model |  | Kd | 32.9 ± 3.16 µM |
| Nc1nc2c(ncn2[C@@H]2O[C@H](COP(=O)(O)OP(=O)(O)O)[C@@H](OP(=O)(O)OP(=O)(O)O)[C@H]2O)c(=O)[nH]1 | gsk | binding, ITC sequential two-site fit |  | first site |  | Kd | 0.4 ± 0.07 µM |
| NCCCCCCCNC(=O)c1ccc(NC(=O)c2ccc(CN(C(=O)c3ccc4c(c3)OCC(=O)N4)C3CC3)cc2)cc1 | Histone-lysine N-methyltransferase NSD2, PWWP1 domain (NSD2, Homo sapiens, UniProt O96028) | SPR single-cycle kinetics |  | pH 7.4, 20 °C, 0.5% DMSO |  | Kd | 0.041 ± 0.019 µM |
| CC[C@H](C)[C@H](NC(=O)[C@H](CC(C)C)NC(=O)[C@H](Cc1ccc(OP(=O)(O)O)cc1)NC(=O)[C@H](CCC(=O)O)NC(=O)[C@H](CC(=O)O)NC(=O)[C@H](C)NC(=O)[C@H](CC(=O)O)NC(=O)[C@@H](NC(=O)[C@@H](NC(=O)[C@H](CC(=O)O)NC(=O)[C@H](CC(=O)O)NC(=O)[C@H](CCSC)NC(=O)c1ccc2c(c1)C(=O)OC21c2ccc(N(C)C)cc2Oc2cc(N(C)C)ccc21)C(C)C)C(C)C)C(=O)N1CCC[C@H]1C(=O)N[C@@H](CCC(N)=O)C(=O)N[C@@H](CCC(N)=O)C(=O)NCC(=O)N[C@@H](Cc1ccccc1)C(=O)N[C@@H](CC(=O)O)C(=O)O | SH2 domain-containing adapter protein B, SH2 domain (SHB, Homo sapiens, UniProt Q15464) | binding |  |  |  | Kd | 1.99 µM |
| O=C(O)CCC1=Nc2cccc3cccc(c23)N1 | HDAC6 ZnF-UBD domain |  |  |  |  | Kd | > 1000 µM |
| Nc1ncnc2c1ncn2[C@@H]1O[C@H](COP(=O)(O)OP(=O)(O)O)[C@@H](O)[C@H]1O | GUK1 (Homo sapiens, UniProt Q16774, T19A) | binding, ITC |  | 25 °C |  | Kd | > 200 µM |
| O=C(O)CCc1nc2ncccn2n1 | USP13 ZnF-UBD domain |  |  |  |  | Kd | 118 µM |
| CC[C@H](C)[C@H](NC(=O)[C@H](CCCNC(=N)N)NC(=O)[C@H](CCCCN)NC(=O)[C@@H]1CCCN1C(=O)[C@@H](N)CO)C(=O)N[C@@H](C)C(=O)O | N-terminal Xaa-Pro-Lys N-methyltransferase 1 (Homo sapiens, UniProt Q9BV86, D180K) | ITC |  | 25 °C, with: peptide |  | Kd | > 1000 µM |
| CC(=O)N[C@H]1[C@H](O[C@H]2[C@H](O)[C@@H](NC(C)=O)C(O)O[C@@H]2CO)O[C@H](CO)[C@@H](O[C@@H]2O[C@H](CO)[C@@H](O)[C@H](O)[C@H]2NC(C)=O)[C@@H]1O (stereo partly shown) | Lysozyme C (LYZ, Gallus gallus, UniProt P00698) | surface sampling native MS |  | 100-fold dilution |  | Kd | 15.5 ± 1.2 µM |
| CC(=O)N([O-])CCCCCNC(=O)CCC(=O)N([O-])CCCCCNC(=O)CCC(=O)N([O-])CCCCCNc1ccc([N+](=O)[O-])c2nonc12.[Fe+3] | Iron(3+)-hydroxamate-binding protein YxeB (yxeB, Bacillus subtilis, UniProt P54941) | binding, Trp fluorescence quenching |  | pH 7.4, with: yxeB 100 nM |  | Kd | 0.034 ± 0.023 µM |
| O=C(O)CCN1C(=O)c2ccccc2S1(=O)=O | USP13 ZnF-UBD domain |  |  |  |  | Kd | > 1000 µM |

| Compound | target or system | assay | system | setting | how to read | endpoint | result |
| --- | --- | --- | --- | --- | --- | --- | --- |
| Cc1cc(Nc2cc3ncccc3c(N[C@@H]3C[C@H]4CC[C@@H](C3)N4CCC#N)n2)n[nH]1 | Serine/threonine-protein kinase 3 (STK3, Homo sapiens, UniProt Q13188) | binding, KINOMEscan |  |  |  | Kd | 0.14 µM |
| O=C(O)COc1cnc2ccccc2n1 | USP13 ZnF-UBD domain |  |  |  |  | Kd | > 1000 µM |
| C[n+]1cn([C@@H]2O[C@H](COP(=O)(O)OP(=O)(O)OP(=O)(O)OC[C@H]3O[C@@H](n4cnc5c(=O)[nH]c(N)nc54)[C@H](O)[C@@H]3O)[C@@H](O)[C@H]2O)c2nc(N)[nH]c(=O)c21 | EIF4E2 (Homo sapiens, UniProt O60573) | isothermal titration calorimetry |  | pH 7.5, 20 °C |  | Kd | 4 ± 1 µM |
| CC(C)C[C@H](NC(=O)[C@H](CO)NC(=O)[C@@H](NC(=O)[C@H](CC(=O)O)NC(=O)[C@@H](NC(=O)[C@H](CC(C)C)NC(=O)[C@H](CCC(N)=O)NC(=O)CNC(=O)[C@@H]1CCCN1C(=O)[C@@H](N)CCC(N)=O)C(C)C)[C@@H](C)O)C(=O)O | SCRIB PDZ3 domain | binding, fluorescence polarization | solution | Scribble PDZ3 domain |  | Kd | 28.2 µM |
| O=C(O)CCC(=O)O | Methyl-accepting chemotaxis protein McpA ligand-binding domain |  |  |  |  | Kd | 473 ± 261 µM |
| CCCCCCCCCCCCCCCC(=O)O | uncharacterized protein (Corynebacterium lipophiloflavum, UniProt C0XPZ5) | heme spectral shift, substrate, UV-visible spectral titration |  |  |  | Kd | 1.34 µM |
| Cn1cc(-c2ccc(-c3cncc(Cl)c3N3CCC4(CCNC4=O)CC3)cc2)cn1 | COLO 205 | gene expression, microarray, measured: CRYBB1 mRNA |  | concentration not given, 2 h | baseline: untreated cells | log2 fold change | -2.02 |
| C[C@H](O)C(=O)O | L166H-Q481H zinc sensor protein | binding, fluorescence lifetime |  | with: 100 µM Zn2+ |  | Kd | 95 ± 5 µM |
| O=C(O)Cc1cccnc1 | HDAC6 ZnF-UBD domain |  |  |  |  | Kd | > 1000 µM |
| C=CC(=O)N1CCN(c2nc(OC[C@@H]3CCCN3C)nc3c(F)c(-c4nc(N)cc(C)c4C(F)(F)F)c(Cl)cc23)[C@@H](C)C1 | GTPase KRas, GDP-bound (KRAS, Homo sapiens, UniProt P01116, A146T) | binding, surface plasmon resonance |  |  |  | Kd | 1.04 ± 0.086 µM |
| CC[C@H](C)[C@H](NC(=O)[C@@H](NC(=O)[C@H](CCC(=O)O)NC(=O)[C@H](CO)NC(=O)[C@@H]1CCCN1C(=O)[C@H](CCC(N)=O)NC(=O)[C@H](C)NC(=O)[C@H](CO)NC(=O)[C@@H](N)CO)[C@@H](C)O)C(=O)N[C@@H](CC(C)C)C(=O)O | SCRIB PDZ3 domain | binding, fluorescence polarization | solution | Scribble PDZ3 domain |  | Kd | 18.3 µM |
| O=C(O)CCOc1ccccc1 | USP13 ZnF-UBD domain |  |  |  |  | Kd | 640 µM |
| Nc1ncnc2c1ncn2[C@@H]1O[C@H](CO[P@](=O)(O)O[P@](=O)(O)O[P@@](=O)(O)S)[C@@H](O)[C@H]1O | GUK1 (Homo sapiens, UniProt Q16774) | ITC |  | no ATPγS or ADP present |  | Kd | 43 µM and 42 µM |
| O=C(O)/C=C/C(=O)O | Methyl-accepting chemotaxis protein McpA ligand-binding domain | binding, biolayer interferometry |  | 25 °C, 1:1 binding model |  | Kd | 22.2 ± 1.32 µM |
| NCC1CN(c2cc(N3C4CCC3CN(c3cc(-c5ccccc5O)nnc3N)C4)ccn2)C1 | SMARCA2 | binding, NanoBRET tracer displacement | permeabilized HEK293 |  |  | Kd | 0.0051 ± 0.0013 µM |
| CCCCOc1ccc(CC(=O)NO)cc1 | Protein deacetylase HDAC6 (HDAC6, Homo sapiens, UniProt Q9UBN7) | inhibitor, competition pulldown | SW620 and MV4-11 lysate | 1 h |  | Kd | > 30.2 µM |
| Nc1nc2c(ncn2[C@@H]2O[C@H](COP(=O)(O)OP(=O)(O)O)[C@@H](OP(=O)(O)OP(=O)(O)O)[C@H]2O)c(=O)[nH]1 | gsk | isothermal titration calorimetry |  |  |  | Kd | 0.31 µM |
| N[C@@H](Cc1c[nH]c2ccccc12)C(=O)O | NRPS (Phaeodactylum tricornutum, UniProt B7G2G4) | microscale thermophoresis |  | 24.1 °C |  | Kd | 0.35 ± 0.31 µM |

Some of these lines once more:
| Compound | target or system | assay | system | setting | how to read | endpoint | result |
| --- | --- | --- | --- | --- | --- | --- | --- |
| O=C(O)CCC1=Nc2cccc3cccc(c23)N1 | HDAC6 ZnF-UBD domain |  |  |  |  | Kd | > 1000 µM |
| CC[C@H](C)[C@H](NC(=O)[C@H](CCCNC(=N)N)NC(=O)[C@H](CCCCN)NC(=O)[C@@H]1CCCN1C(=O)[C@@H](N)CO)C(=O)N[C@@H](C)C(=O)O | N-terminal Xaa-Pro-Lys N-methyltransferase 1 (Homo sapiens, UniProt Q9BV86, D180K) | ITC |  | 25 °C, with: peptide |  | Kd | > 1000 µM |
